Assay results of several laboratories.
Compare with care: the assays were run in different laboratories.
Target: Ephrin type-A receptor 7 (EPHA7, Homo sapiens, UniProt Q15375)

COc1c(Cl)cccc1Nc1c(-c2ccncc2C#C[C@@]2(C)CCCN2C(=O)/C=C/CN(C)C)[nH]c2c1C(=O)NCC2
remaining binding (cell-free assay, competition with immobilised ligand; 3 µM): 49%

COc1c(OCCCN2CCOCC2)ccc2c1N=C(NC(=O)c1cnc(N)nc1)N1CCN=C21
remaining activity (kinase activity, inhibitor; 1 µM; relative to: untreated control): 101%

CNC(=O)C[C@H](Cc1ccc(C#N)cc1)NC(=O)c1cc(-c2ccc(CN[C@H](C)c3ccc(C)cc3)o2)ccc1Cl
activity vs control (enzyme activity, inhibitor; 1 µM): 112%

NC(=O)C[C@H]1CCc2sc3ncnc(O[C@H]4CC[C@H](N5CCOCC5)CC4)c3c21
inhibition (enzyme activity, inhibitor; 10 µM): 8%

CNC1C[S+]2CC[S+]3CC[S+](C1)[Ru-4]321([N]=C=S)[n]2c3ccc(OC)cc3c3c4c(c5cc(F)c[n+]1c5c32)C(=O)NC4=O (stereo not drawn)
remaining binding (KinomeScan; 0.1 µM; relative to: untreated): 99%

Cc1ccc(-c2c(/C=C(\C#N)C(=O)NC(C)C)n(CCCO)c3ncnc(N)c23)cc1
remaining binding (cell-free assay, competition with immobilised ligand; 1 µM): 82%

C=CC(=O)N1CCc2ccc(-n3c(=O)ccc4cnc5ccc(-c6cnn(C)c6)cc5c43)cc21
remaining binding (KINOMEscan; 1 µM; relative to: DMSO control): 92%

COc1cc(Nc2nc(C)cc(-c3cnn4nc(OC)ccc34)n2)cc(C(F)(F)F)c1
remaining activity (inhibitor; 1 µM; relative to: control): 77%

CNC(=O)C1CCN(c2cc(C)c(F)cc2NC(=O)c2ccc(-c3cc(O)ccc3C)c(C)c2)CC1
remaining binding (binding, competition with immobilised ligand; 1 µM): 100%

C=CC(=O)N1Cc2nc(-c3cc(-c4cc(Cl)cnc4Cl)c(F)cc3F)n(-c3ccncn3)c2C1
inhibition (cell-free assay; 1 µM): 0%

Cc1cnc2nc1Nc1cccc(c1)COC/C=C/COCc1cc(ccc1OCCN1CCOCC1)N2
remaining binding (binding; 0.1 µM): 85%

CN1CCN(Cc2ccc(-c3ccc(CO[C@H]4CCC[C@@H]4NC(=O)c4cc(-c5cnn(C)c5)cnc4N)cc3)cc2)CC1
inhibition (enzyme activity, inhibitor; 0.1 µM): 3%

For quick reference, copied from above:
NC(=O)C[C@H]1CCc2sc3ncnc(O[C@H]4CC[C@H](N5CCOCC5)CC4)c3c21
inhibition (enzyme activity, inhibitor; 10 µM): 8%
